Results of several laboratories.
Numbered parts are unrelated; each lists some results of a single study.

Series 1
Target: Histone acetyltransferase KAT6A, both winged helices, GST fusion (KAT6A, Homo sapiens, UniProt Q92794, residues 1-181)
Method: protein binding microarray
Molecule type: double-stranded DNA, one strand shown
Matrix: in vitro
Tested at: not given
Notes: 8-mer, flanks averaged, mean of 2 arrays, mostly near background
Relative to: not given
Reading: higher = stronger binding
Construct (chain): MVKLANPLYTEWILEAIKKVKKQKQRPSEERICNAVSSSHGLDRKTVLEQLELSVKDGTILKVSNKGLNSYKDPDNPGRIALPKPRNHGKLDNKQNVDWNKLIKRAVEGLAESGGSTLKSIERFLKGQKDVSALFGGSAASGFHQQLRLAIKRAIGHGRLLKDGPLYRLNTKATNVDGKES
Strand | E-score
AGTCGTTG | -0.077
CAGCTTTA | -0.248
CACCTGGC | -0.134
AAGCTTTA | -0.0191
GGGCCCTA | -0.0223

Series 2
Target: POU domain, class 5, transcription factor 1, POU domain (Pou5f1, Mus musculus, UniProt P20263, residues 131-289)
Sequence of UniProt P20263 (131-289, looked up): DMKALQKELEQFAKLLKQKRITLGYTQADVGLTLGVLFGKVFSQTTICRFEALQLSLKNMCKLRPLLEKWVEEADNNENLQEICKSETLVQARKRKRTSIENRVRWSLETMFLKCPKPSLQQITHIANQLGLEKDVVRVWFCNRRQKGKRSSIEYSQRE
Method: Spec-seq
Molecule type: double-stranded DNA, one strand shown
Matrix: in vitro
Tested at: not given
Notes: whole probe, mean of replicates
Relative to: not given
Reading: lower = stronger binding
Strand | relative binding energy [ln ratio]
GAGTCGTCTCGTCAGCACACTCTAATCCGTAGAGCACTCAGGTC | 0.493
GAGTCGTCTCGTCAGCACATTCAGATCCGTAGAGCACTCAGGTC | -0.236
GAGTCGTCTCGTCAGCACATGCAGTCCCGTAGAGCACTCAGGTC | 0.367

Series 3
Target: Interferon regulatory factor 7, full length, phosphomimetic (IRF7, Homo sapiens, UniProt Q92985, residues 1-503, S101K/S471D/S472D/S475D/S476D/S477D/S483D/S484D/S487D)
Method: protein-binding microarray
Molecule type: double-stranded DNA, one strand shown
Matrix: in vitro
Tested at: 250 nM
Notes: 60-bp whole probe
With: salmon DNA 0.4 mg/ml
Relative to: random background probes
Reading: higher = stronger binding
Construct (chain): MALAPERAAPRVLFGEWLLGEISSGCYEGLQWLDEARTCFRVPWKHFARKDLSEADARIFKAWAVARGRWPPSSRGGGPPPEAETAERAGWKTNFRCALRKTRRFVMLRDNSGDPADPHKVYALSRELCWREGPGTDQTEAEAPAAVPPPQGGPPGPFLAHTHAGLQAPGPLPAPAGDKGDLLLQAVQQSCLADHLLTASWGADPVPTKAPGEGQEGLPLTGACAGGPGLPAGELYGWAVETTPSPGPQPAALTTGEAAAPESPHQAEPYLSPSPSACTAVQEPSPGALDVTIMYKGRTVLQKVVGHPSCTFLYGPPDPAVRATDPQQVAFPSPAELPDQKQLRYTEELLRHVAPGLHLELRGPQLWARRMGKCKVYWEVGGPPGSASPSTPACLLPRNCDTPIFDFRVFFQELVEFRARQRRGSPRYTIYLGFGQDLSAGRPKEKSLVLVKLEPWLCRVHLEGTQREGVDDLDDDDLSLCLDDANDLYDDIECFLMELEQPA
Strand | log fluorescence [z-score]
GCCTAGCACGACGGACTGCTGTTCCTGACGTGCTAGGTCTTGATTCGCTTGACGCTGCTG | -0.245
GCCTAGCACTTAGGTTTCGGTTTTGGTTAGTGCTAGGTCTTGATTCGCTTGACGCTGCTG | 13.4
GCCTAGCACTTAGGACTGTACACTGGGTTAGTGCTAGTCTTGATTCGCTTGACGCTGCTG | -0.416

Other studies, line by line
Molecule | target | test | test system | setting | scale | measurement | result
PhoQ, residues 284 288 289 292 302 303 DDMDFR | PhoP, residues 12 14 15 18 19 LHATL (Escherichia coli, UniProt P23836) | Sort-seq, measured: YFP reporter | E. coli | PhoQ-PhoP variant library, with: 10 µM Mg2+ | relative to: high Mg2+ state, higher = stronger signaling | fold induction | 0.545

Some of these lines once more (series 2):
Strand | relative binding energy [ln ratio]
GAGTCGTCTCGTCAGCACATGCAGTCCCGTAGAGCACTCAGGTC | 0.367
